Measured values from different studies.
Each line is one published result; not all experiments were run side by side. Numbers after ± are the reported error.

| Substance | assay | system | setting | Tmax [min] |
| --- | --- | --- | --- | --- |
| Cc1cc2c(cc1C1(c3ncc(C(=O)O)cn3)CC1)C(C)(C)CCC2(C)C |  | rat Sprague-Dawley male, plasma | oral, 100 mg/kg, sesame oil | 60 |
| N[C@H](COc1ccccc1C(F)(F)F)c1ccccc1 |  | male Sprague-Dawley rat | intravenous, 5 mg/kg | 10.2 |
| CCCC(CCC)NC(=O)c1ccc(OC2OC(C(=O)O)C(O)C(O)C2O)c(OC)c1 (centres unmarked) |  | male Sprague-Dawley rat, plasma | oral, 200 mg/kg of parent drug | 480 |
| CC(C)C[C@H](NC(=O)[C@H](CCCCN)NC(=O)CNC(=O)[C@H](CC(C)C)NC(=O)[C@@H](NC(=O)[C@@H]1CSSC[C@H](N)C(=O)N[C@@H](CO)C(=O)N[C@@H](CC(N)=O)C(=O)N[C@@H](CC(C)C)C(=O)N[C@@H](CO)C(=O)N[C@@H]([C@@H](C)O)C(=O)N1)C(C)C)C(=O)N[C@@H](CO)C(=O)N[C@@H](CCC(N)=O)C(=O)N[C@@H](CCC(=O)O)C(=O)N[C@@H](CC(C)C)C(=O)N[C@@H](Cc1c[nH]cn1)C(=O)N[C@@H](CCCCN)C(=O)N[C@@H](CC(C)C)C(=O)N[C@@H](CCC(N)=O)C(=O)N[C@H](C(=O)N[C@@H](Cc1ccc(O)cc1)C(=O)N1CCC[C@H]1C(=O)N[C@@H](CCCNC(=N)N)C(=O)N[C@H](C(=O)N[C@@H](CC(N)=O)C(=O)N[C@H](C(=O)NCC(=O)N[C@@H](CO)C(=O)NCC(=O)N[C@H](C(=O)N1CCC[C@H]1C(N)=O)[C@@H](C)O)[C@@H](C)O)[C@@H](C)O)[C@@H](C)O | ELISA | hairless Sprague-Dawley rat, male, serum | intravenous, 3 µg | 5 |
| Cc1ccccc1/N=N/c1ccc(/N=N/c2c(O)ccc3ccccc23)c(C)c1 |  | Sprague-Dawley rats both sexes, whole blood | oral, 50 mg/kg | ~260 |
| Ac-CSNLSTCXLGKLSQDLHRLQTYPKTDVGANAP-NH2 (N-acetyl, C-amide) | ELISA | peptide, high-fat diet Sprague Dawley rats, plasma | subcutaneous, 4 nmol/kg | 480 |
| C=C(c1ncc(C(=O)O)cn1)c1cc2c(cc1C)C(C)(C)CCC2(C)C |  | rat Sprague-Dawley male, plasma | oral, 100 mg/kg, sesame oil | 60 |
| Cc1noc(C)c1Cn1cc(N2C(=O)CN(Cc3cccc(OS(=O)(=O)O)c3)C2=O)cn1 |  | rat Sprague-Dawley male, plasma | oral, 10 mg/kg of parent drug | 30 |
| O=C(O)CN1CCN(CC(=O)O)CCN(C(CCC(=O)NCc2ccc(NC(=S)NCCOCCOCCOCCNC(=O)CCCc3ccc(I)cc3)cc2)C(=O)O)CC1 (centres unmarked) | dynamic PET/CT | Sprague-Dawley rats female, cisterna magna | intracisternal infusion, median | 32.5 |
| Cc1noc(C)c1Cn1cc(N2C(=O)CN(Cc3cccc(O[C@@H]4O[C@H](C(=O)O)[C@@H](O)[C@H](O)[C@H]4O)c3)C2=O)cn1 |  | rat Sprague-Dawley male, plasma | oral, 30 mg/kg of parent drug | 30 |
| CCNC(=O)[C@@H]1CCCN1C(=O)[C@H](CCCNC(=N)N)NC(=O)[C@H](CC(C)C)NC(=O)[C@@H](CC(C)C)NC(=O)[C@H](Cc1ccc(O)cc1)NC(=O)[C@H](CO)NC(=O)[C@H](Cc1c[nH]c2ccccc12)NC(=O)[C@H](Cc1c[nH]cn1)NC(=O)[C@@H]1CCC(=O)N1 |  | Sprague-Dawley rat, male, plasma | subcutaneous, 12.5 mg/kg | ≤ 60 |
| CCCC(CCC)NC(=O)c1ccc(OS(=O)(=O)O)c(OC)c1 |  | female Sprague-Dawley rat, plasma | oral, 20 mg/kg of parent drug | 30 |
| Cc1cc(-c2ccc(NC(=S)Nc3ccc(CNC(=O)CCC(C(=O)O)N4CCN(CC(=O)O)CCN(CC(=O)O)CC4)cc3)c(C)c2)ccc1/N=N/c1ccc2c(S(=O)(=O)O)cc(S(=O)(=O)O)c(N)c2c1O (centres unmarked) | dynamic PET/CT | Sprague-Dawley rats female, cisterna magna | intracisternal infusion, median | 30 |
| COC(=O)c1ccc2c(c1)NC(=O)/C2=C(\Nc1ccc2c(c1)CCN2C(=O)CN1CCOCC1)c1ccccc1 |  | Sprague-Dawley rat, plasma | oral, 10 mg/kg | 60 |
| O=c1c2cc(Cl)ccc2sc2c(NCc3ccccc3)nc3ccccc3c12 |  | rat Sprague-Dawley male, plasma | intravenous, 3.0 mg/kg | 8.4 ± 3.6 |
| CC/C=C\C/C=C\C/C=C\C/C=C\C/C=C\CCCCOC(CC)C(=O)O (centres unmarked) |  | Wistar rat, male, portal vein plasma | oral, 100 mg/kg | 120 |
| CCCC(CCC(=O)O)NC(=O)c1ccc2c(c1)OCO2 (centres unmarked) |  | female Sprague-Dawley rat, plasma | oral, 50 mg/kg of parent drug | 60 |
| COC(=O)C(CSC1CC(=O)N(CCC(=O)O)C1=O)NC(=O)CCC(NC(=O)c1ccc(NCc2cnc3nc(N)nc(N)c3n2)cc1)C(=O)O (centres unmarked) |  | female Lewis rats, plasma | subcutaneous, 500 nmol/kg of parent drug | ~60 |
| CCCCC/C=C/C=C/C(=O)NCC(C)C |  | rat, sham-operated, plasma | oral, 50 mg/kg | 27 ± 12.6 |
| CC(=O)[CH](C(C)=O)[Pt-2]1([S+](C)C)[O]C(C)=CC(C)=[O+]1 (centres unmarked) | measured: platinum | rat, plasma | intravenous, dose not given | 30 |
| COc1cc2oc(-c3ccc(O)cc3)cc(=O)c2c(O)c1[C@@H]1O[C@H](CO)[C@@H](O)[C@H](O)[C@H]1O[C@@H]1O[C@H](CO)[C@@H](O)[C@H](O)[C@H]1O |  | male Sprague-Dawley rat, PCPA-induced insomnia, plasma | oral, 6.8 g/kg | 13.8 ± 5.4 |
| Oc1ccc2ccccc2c1/N=N/c1ccccc1 |  | Sprague-Dawley rats both sexes, whole blood | oral, 50 mg/kg | ~36.3 |
| CCCC(CCC)NC(=O)c1ccc(O)c(O)c1 |  | female Sprague-Dawley rat, plasma | oral, 20 mg/kg of parent drug | 15 |
| COC(=O)/C=C/C(=O)c1ccc(OC)cc1 |  | Sprague-Dawley rat, both sexes, plasma | oral, 200 mg/kg | 34.8 ± 27.6 |
| CCCC(CCC)NC(=O)c1ccc(OC2OC(C(=O)O)C(O)C(O)C2O)c(O)c1 (centres unmarked) |  | male Sprague-Dawley rat, plasma | oral, 50 mg/kg of parent drug | 900 |
| Cc1ccc(OCC(=O)O)cc1 |  | Sprague-Dawley rat Crl:CD(SD), female, plasma | oral, 10 mg/kg/day of parent drug, day 90, 90-day repeated dosing | 60 |

For quick reference, copied from above:
| Substance | assay | system | setting | Tmax [min] |
| --- | --- | --- | --- | --- |
| CC(C)C[C@H](NC(=O)[C@H](CCCCN)NC(=O)CNC(=O)[C@H](CC(C)C)NC(=O)[C@@H](NC(=O)[C@@H]1CSSC[C@H](N)C(=O)N[C@@H](CO)C(=O)N[C@@H](CC(N)=O)C(=O)N[C@@H](CC(C)C)C(=O)N[C@@H](CO)C(=O)N[C@@H]([C@@H](C)O)C(=O)N1)C(C)C)C(=O)N[C@@H](CO)C(=O)N[C@@H](CCC(N)=O)C(=O)N[C@@H](CCC(=O)O)C(=O)N[C@@H](CC(C)C)C(=O)N[C@@H](Cc1c[nH]cn1)C(=O)N[C@@H](CCCCN)C(=O)N[C@@H](CC(C)C)C(=O)N[C@@H](CCC(N)=O)C(=O)N[C@H](C(=O)N[C@@H](Cc1ccc(O)cc1)C(=O)N1CCC[C@H]1C(=O)N[C@@H](CCCNC(=N)N)C(=O)N[C@H](C(=O)N[C@@H](CC(N)=O)C(=O)N[C@H](C(=O)NCC(=O)N[C@@H](CO)C(=O)NCC(=O)N[C@H](C(=O)N1CCC[C@H]1C(N)=O)[C@@H](C)O)[C@@H](C)O)[C@@H](C)O)[C@@H](C)O | ELISA | hairless Sprague-Dawley rat, male, serum | intravenous, 3 µg | 5 |
| Cc1ccccc1/N=N/c1ccc(/N=N/c2c(O)ccc3ccccc23)c(C)c1 |  | Sprague-Dawley rats both sexes, whole blood | oral, 50 mg/kg | ~260 |
